Published values from different studies.
Lines come from different studies, so protocols differ. Numbers after ± are the reported error. Converted amounts (≈) assume the structure as drawn.
Cell line: HT-29

Structure (SMILES)	assay	system	setting	how to read	quantity	value
COc1c(C)c(OC(C)=O)c(C)c(OC(C)=O)c1C(=O)/C=C/c1ccccc1	SRB	–	–	reference: normal over HT-29 IC50	selectivity index	0.75
Cc1cc(=O)[nH]n1-c1nc(-c2ccc(Cl)cc2)c2c(NC(=O)c3ccccc3)nnc-2[nH]1	SRB	–	10 µM, NCI60 single-dose screen, colon cancer	reference: untreated	cell growth	108%
COc1c(C)c(OC)c(C(=O)/C=C/c2ccccc2)c(OC)c1C	SRB	–	–	reference: normal over HT-29 IC50	selectivity index	0.85
NNc1nc(-c2ccc(Cl)cc2)c2c(NC(=O)c3ccccc3)nnc-2[nH]1	SRB	–	10 µM, NCI60 single-dose screen, colon cancer	reference: untreated	cell growth	105%
[Cl-].c1csc([I+]c2cccs2)c1	DCF flow cytometry	–	5 µM, 1 h, added: DPI 200 nM	–	intracellular ROS level	decreased
Cc1cc(C)n(C(=S)[S][Au][PH](CCCCCC[PH]([Au][S]C(=S)n2nc(C)cc2C)(c2ccccc2)c2ccccc2)(c2ccccc2)c2ccccc2)n1	cell growth, NCI-60 screen	–	colon cancer	–	log10 TGI	> -4
CCCCN1CCN(c2ccc3[nH]c(-c4ccc5[nH]c(-c6ccc(C(F)(F)F)cc6)nc5c4)nc3c2)CC1	SRB	–	10 µM, 48 h	–	growth percent	-49.5%
COc1c(C)c(OC(C)=O)c(C)c(O)c1C(=O)/C=C/c1ccccc1	SRB	–	–	reference: normal over HT-29 IC50	selectivity index	0.8
CCOc1ccc(-c2nc3cc(-c4nc5cc(N6CCN(C)CC6)ccc5[nH]4)ccc3[nH]2)cc1OCC	SRB	–	10 µM, 48 h	–	growth percent	19.4%
O=C(Nc1nnc2n3c(Cc4ccccc4)n[nH]c3nc(-c3ccc(Cl)cc3)c1-2)c1ccccc1	SRB	–	10 µM, NCI60 single-dose screen, colon cancer	reference: untreated	cell growth	111%
CNC(=O)c1ccc2c(c1)ncn2-c1ccc(CC(=O)OC(C)(C)C)cc1	necroptosis	–	concentration not given, added: TNF	–	activity	active
Cc1n[nH]c2nc(-c3ccc(Cl)cc3)c3c(NC(=O)c4ccccc4)nnc-3n12	SRB	–	10 µM, NCI60 single-dose screen, colon cancer	reference: untreated	cell growth	119%
COc1c(C)c(OCc2ccccc2)c(C)c(O)c1C(=O)/C=C/c1ccccc1	SRB	–	–	reference: normal over HT-29 IC50	selectivity index	0.82
Cc1cc(-c2ccccc2)n(-c2nc(-c3ccc(Cl)cc3)c3c(NC(=O)c4ccccc4)nnc-3[nH]2)n1	SRB	–	10 µM, NCI60 single-dose screen, colon cancer	reference: untreated	cell growth	114%
CCCC(=O)Oc1c(C)c(O)c(C(=O)/C=C/c2ccccc2)c(OC)c1C	SRB	–	–	reference: normal over HT-29 IC50	selectivity index	0.92
O=C(/C=C/C=C/C=C/C1CCCCC1)NC1=C[C@@](O)(/C=C/C=C/C=C/C(=O)NC2=C(O)CCC2=O)[C@@H]2O[C@@H]2C1=O	cell growth, CellTiter-Glo	–	78 h	–	GI50	20.8 µM
CCCN1CCN(c2ccc3nc(-c4ccc5nc(-c6cc(OC)ccc6OC)[nH]c5c4)[nH]c3c2)CC1	SRB	–	10 µM, 48 h	–	growth percent	-23.2%
C#C[C@@]1(O)[C@@H](CO)O[C@@H](n2ccc3c(N)ncnc32)[C@@H]1O	SRB	–	NCI-60 screen	–	TGI	10 µM
CCCCN1CCN(c2ccc3[nH]c(-c4ccc5[nH]c(-c6cc(OC)c(OC)c(OC)c6)nc5c4)nc3c2)CC1	SRB	–	10 µM, 48 h	–	growth percent	56%
CCn1cc(-c2cc(Cn3ccoc3=N)cc3c2CCN([C@@H](C)c2cc(OC)ccn2)C3=O)c(C(F)(F)F)n1	cell growth, inhibitor	–	120 h	–	EC50	> 30 µM
O=C1NC(=NCc2cccs2)S/C1=C\c1ccc2ncccc2c1	MTS	colon cancer	–	–	IC50	> 10 µM
COc1c(C)c(OS(=O)(=O)c2ccc3ccccc3c2)c(C)c(O)c1C(=O)/C=C/c1ccccc1	SRB	–	–	reference: normal over HT-29 IC50	selectivity index	1.23
CCCN1CCN(c2ccc3[nH]c(-c4ccc5[nH]c(-c6ccc(C(F)(F)F)cc6)nc5c4)nc3c2)CC1	SRB	–	10 µM, 48 h	–	growth percent	-44%
Cc1cc(C)n(-c2nc(-c3ccc(Cl)cc3)c3c(NC(=O)c4ccccc4)nnc-3[nH]2)n1	SRB	–	10 µM, NCI60 single-dose screen, colon cancer	reference: untreated	cell growth	75.7%
CCCCN1CCN(c2ccc3[nH]c(-c4ccc5[nH]c(-c6ccc(OCC)c(OCC)c6)nc5c4)nc3c2)CC1	SRB	–	10 µM, 48 h	–	growth percent	-20.8%
COc1cccc(OC)c1-c1cc(C(=O)NC2(C(=O)O)C3CC4CC(C3)CC2C4)nn1-c1ccc(C(=O)N(C)CCCN(C)CCCN(C)C(=O)CN2CCN(CC(=O)[O-])CCN(CC(=O)[O-])CCN(CC(=O)[O-])CC2)cc1C(C)C.[177Lu+3] (stereo not drawn)	–	–	concentration not given, 240 min, 37 °C	reference: added	internalized activity	1.76 ± 0.03%
Cn1cncc1-c1c(F)cncc1NC(=O)c1c(N)nn2cc(F)cnc12	CHK1 phosphorylation, inhibitor, item: pCHK1	–	added: 4NQO	–	IC90	7.9 ng/mL (≈ 0.0213 µM)

Excerpt of the above:
Structure (SMILES)	assay	system	setting	how to read	quantity	value
CNC(=O)c1ccc2c(c1)ncn2-c1ccc(CC(=O)OC(C)(C)C)cc1	necroptosis	–	concentration not given, added: TNF	–	activity	active
